Measured values of several laboratories.
Every numbered part comes from another study and shows a few of its results, in no order.
Sequence of UniProt P06213 (whole entry, looked up): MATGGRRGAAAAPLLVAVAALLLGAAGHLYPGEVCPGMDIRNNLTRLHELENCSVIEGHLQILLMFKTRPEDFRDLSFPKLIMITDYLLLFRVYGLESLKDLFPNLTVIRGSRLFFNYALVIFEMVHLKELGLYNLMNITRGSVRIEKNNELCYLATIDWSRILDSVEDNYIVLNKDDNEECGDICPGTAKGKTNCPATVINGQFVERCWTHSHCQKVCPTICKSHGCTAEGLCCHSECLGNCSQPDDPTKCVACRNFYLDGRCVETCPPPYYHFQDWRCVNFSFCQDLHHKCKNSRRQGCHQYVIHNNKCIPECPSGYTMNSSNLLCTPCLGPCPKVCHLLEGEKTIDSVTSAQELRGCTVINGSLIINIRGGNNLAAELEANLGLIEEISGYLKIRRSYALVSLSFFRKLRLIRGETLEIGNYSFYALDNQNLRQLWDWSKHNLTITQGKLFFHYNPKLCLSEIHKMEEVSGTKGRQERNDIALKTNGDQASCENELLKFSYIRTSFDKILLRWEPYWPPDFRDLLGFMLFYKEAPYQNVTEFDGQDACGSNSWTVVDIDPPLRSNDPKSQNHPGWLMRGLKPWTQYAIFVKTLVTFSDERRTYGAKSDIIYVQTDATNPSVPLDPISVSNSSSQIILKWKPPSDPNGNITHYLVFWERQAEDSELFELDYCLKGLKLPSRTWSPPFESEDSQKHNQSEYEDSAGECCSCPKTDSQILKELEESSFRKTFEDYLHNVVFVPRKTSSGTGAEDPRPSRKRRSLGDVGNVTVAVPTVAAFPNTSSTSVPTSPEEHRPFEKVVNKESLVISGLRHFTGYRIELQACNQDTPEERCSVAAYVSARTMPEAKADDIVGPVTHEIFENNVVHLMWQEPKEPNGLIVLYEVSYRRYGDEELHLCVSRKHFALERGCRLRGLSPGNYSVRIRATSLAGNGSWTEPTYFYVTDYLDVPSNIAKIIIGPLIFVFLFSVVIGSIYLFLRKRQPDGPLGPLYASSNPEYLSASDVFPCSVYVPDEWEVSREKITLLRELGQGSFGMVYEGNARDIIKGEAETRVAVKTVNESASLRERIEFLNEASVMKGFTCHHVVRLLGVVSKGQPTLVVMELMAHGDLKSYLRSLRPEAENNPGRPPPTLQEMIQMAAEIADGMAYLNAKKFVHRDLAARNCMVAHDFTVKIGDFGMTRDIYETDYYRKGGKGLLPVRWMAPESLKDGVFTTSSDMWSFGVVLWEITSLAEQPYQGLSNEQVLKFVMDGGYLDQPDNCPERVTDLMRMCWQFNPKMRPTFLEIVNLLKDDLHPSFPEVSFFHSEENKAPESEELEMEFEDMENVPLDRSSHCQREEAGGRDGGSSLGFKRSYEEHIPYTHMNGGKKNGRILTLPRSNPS
Sequence of UniProt Q8IU85 (whole entry, looked up): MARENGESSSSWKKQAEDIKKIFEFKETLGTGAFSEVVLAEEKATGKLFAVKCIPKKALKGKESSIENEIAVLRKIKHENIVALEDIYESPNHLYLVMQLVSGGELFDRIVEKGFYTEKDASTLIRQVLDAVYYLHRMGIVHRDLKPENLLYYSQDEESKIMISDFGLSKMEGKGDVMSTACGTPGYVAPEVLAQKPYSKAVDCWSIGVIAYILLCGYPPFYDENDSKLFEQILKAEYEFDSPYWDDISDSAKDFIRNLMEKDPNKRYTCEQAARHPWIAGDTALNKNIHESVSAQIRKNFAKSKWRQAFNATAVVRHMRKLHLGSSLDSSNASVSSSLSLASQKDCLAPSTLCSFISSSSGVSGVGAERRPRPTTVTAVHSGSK
Sequence of UniProt P45983 (whole entry, looked up): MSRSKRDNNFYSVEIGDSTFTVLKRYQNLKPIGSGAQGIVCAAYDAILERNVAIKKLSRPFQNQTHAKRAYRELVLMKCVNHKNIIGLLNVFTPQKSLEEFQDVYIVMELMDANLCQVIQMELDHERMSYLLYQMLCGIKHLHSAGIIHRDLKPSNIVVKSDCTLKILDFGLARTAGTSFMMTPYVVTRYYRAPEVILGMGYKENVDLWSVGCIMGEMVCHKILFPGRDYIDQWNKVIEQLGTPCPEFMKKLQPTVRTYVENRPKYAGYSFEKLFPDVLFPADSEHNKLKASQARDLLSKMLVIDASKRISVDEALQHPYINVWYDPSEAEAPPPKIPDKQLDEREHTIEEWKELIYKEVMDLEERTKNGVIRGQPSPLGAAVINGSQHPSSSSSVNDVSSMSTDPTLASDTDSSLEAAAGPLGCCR
Sequence of UniProt Q9P2K8 (whole entry, unmodified, looked up): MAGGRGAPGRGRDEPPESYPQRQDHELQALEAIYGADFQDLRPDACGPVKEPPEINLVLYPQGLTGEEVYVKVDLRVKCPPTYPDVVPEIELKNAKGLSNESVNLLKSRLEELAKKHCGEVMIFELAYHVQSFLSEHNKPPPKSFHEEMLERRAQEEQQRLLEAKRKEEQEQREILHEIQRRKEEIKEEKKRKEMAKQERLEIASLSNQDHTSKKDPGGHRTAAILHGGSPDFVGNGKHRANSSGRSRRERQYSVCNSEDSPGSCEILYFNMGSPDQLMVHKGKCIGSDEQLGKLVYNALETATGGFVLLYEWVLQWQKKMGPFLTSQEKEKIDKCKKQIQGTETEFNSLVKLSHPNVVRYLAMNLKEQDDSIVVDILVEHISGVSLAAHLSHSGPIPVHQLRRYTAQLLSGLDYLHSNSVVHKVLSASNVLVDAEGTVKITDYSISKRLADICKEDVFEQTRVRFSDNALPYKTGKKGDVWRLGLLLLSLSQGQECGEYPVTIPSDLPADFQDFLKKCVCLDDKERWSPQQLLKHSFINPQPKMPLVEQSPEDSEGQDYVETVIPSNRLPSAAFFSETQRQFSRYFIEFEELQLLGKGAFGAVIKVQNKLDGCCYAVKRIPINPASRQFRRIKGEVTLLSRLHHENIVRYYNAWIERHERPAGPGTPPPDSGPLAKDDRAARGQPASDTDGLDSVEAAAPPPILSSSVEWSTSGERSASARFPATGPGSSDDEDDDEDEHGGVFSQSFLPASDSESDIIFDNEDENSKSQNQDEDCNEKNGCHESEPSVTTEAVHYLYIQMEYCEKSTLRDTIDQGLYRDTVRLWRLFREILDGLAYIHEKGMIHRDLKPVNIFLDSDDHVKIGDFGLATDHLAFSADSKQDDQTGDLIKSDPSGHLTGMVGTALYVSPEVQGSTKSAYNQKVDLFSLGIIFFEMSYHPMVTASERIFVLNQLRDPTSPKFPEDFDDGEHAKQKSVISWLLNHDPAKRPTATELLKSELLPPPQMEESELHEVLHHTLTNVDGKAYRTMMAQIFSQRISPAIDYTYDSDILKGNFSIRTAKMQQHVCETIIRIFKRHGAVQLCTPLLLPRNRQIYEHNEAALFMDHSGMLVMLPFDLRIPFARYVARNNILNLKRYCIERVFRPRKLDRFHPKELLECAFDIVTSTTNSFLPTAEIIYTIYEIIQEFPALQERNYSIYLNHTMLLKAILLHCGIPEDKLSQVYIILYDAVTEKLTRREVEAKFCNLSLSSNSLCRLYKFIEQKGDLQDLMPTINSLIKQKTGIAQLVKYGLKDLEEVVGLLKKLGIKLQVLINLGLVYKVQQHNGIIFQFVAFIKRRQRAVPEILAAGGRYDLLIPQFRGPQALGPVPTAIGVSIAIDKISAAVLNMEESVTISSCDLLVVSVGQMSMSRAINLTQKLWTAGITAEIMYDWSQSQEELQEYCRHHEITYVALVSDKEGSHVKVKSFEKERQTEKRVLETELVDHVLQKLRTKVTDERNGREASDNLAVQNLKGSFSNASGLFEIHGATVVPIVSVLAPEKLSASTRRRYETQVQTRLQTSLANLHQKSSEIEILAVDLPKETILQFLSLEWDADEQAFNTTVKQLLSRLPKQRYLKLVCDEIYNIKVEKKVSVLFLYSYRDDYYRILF
Sequence of UniProt O00444 (whole entry, looked up): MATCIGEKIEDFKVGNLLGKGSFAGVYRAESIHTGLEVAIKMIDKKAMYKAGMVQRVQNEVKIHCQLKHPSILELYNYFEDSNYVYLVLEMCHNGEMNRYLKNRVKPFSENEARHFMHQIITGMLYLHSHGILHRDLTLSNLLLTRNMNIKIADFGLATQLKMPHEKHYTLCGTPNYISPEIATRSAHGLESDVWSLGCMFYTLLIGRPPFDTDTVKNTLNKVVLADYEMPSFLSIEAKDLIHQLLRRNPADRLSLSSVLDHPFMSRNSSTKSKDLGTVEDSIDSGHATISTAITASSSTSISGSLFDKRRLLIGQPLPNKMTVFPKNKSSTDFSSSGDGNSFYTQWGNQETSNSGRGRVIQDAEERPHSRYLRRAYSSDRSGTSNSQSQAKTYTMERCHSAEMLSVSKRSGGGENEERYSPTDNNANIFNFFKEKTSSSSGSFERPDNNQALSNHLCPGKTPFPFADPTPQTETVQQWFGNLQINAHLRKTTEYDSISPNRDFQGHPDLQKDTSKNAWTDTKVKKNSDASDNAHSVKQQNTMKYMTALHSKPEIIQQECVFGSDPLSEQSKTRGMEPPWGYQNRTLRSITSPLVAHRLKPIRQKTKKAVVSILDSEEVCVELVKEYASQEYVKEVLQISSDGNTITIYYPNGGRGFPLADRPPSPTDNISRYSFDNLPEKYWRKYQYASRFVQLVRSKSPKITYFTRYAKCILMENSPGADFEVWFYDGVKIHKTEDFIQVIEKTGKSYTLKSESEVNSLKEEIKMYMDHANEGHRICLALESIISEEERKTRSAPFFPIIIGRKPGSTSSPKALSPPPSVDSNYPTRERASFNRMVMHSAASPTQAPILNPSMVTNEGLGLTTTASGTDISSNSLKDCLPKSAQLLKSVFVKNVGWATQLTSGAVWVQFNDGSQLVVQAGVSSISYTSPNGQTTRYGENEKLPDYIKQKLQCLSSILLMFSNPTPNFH

Block 1
Target: TAR DNA-binding protein 43, full length, His tag (TARDBP, Homo sapiens, UniProt Q13148, residues 1-414)
Technique: RNA Bind-n-Seq
Form: RNA
Sample: in vitro
Tested at: 20 nM
Notes: 6-mer, flanks averaged, single round
With: 150 mM KCl
Baseline: input library
Direction: higher = stronger binding
`CUGGCA` — result for “6-mer enrichment (R)”: 0.832.
For `GCGGCG`, “6-mer enrichment (R)” read 3.59.
`GGAGAU` — result for “6-mer enrichment (R)”: 1.48.
`UCAGUU`: “6-mer enrichment (R)” 0.593.
Under “6-mer enrichment (R)”, `UCGGUC` is recorded as 0.706.
`GUUGCU`: “6-mer enrichment (R)” 0.771.
`GUUCGG` — result for “6-mer enrichment (R)”: 1.38.
`GAUGAG`: “6-mer enrichment (R)” 1.64.

Block 2
SMILES: O=C1NC(c2ccccn2)Sc2ccccc21 (stereo not shown)
Read-out: cell-free assay
Technique: competition with immobilised ligand
Tested at: 1 µM
PRKCQ (Homo sapiens, UniProt Q04759) — remaining binding: 76%.
The remaining binding was 88% (Insulin receptor (INSR, Homo sapiens, UniProt P06213)).
PIK3CA (Homo sapiens, UniProt P42336, I800L) — remaining binding: 80%.
PIP5K1C (Homo sapiens, UniProt O60331) — remaining binding: 77%.
It gave 100% for remaining binding (NEK2 (Homo sapiens, UniProt P51955)).
For PLK4 (Homo sapiens, UniProt O00444): remaining binding read 76%.
The remaining binding was 82% (CAMK1D (Homo sapiens, UniProt Q8IU85)).
It gave 86% for remaining binding (STK17A (Homo sapiens, UniProt Q9UEE5)).
It gave 70% for remaining binding (HIPK4 (Homo sapiens, UniProt Q8NE63)).
It gave 100% for remaining binding (MAPK8 (Homo sapiens, UniProt P45983)).
FRK (Homo sapiens, UniProt P42685) — remaining binding: 100%.
CHEK2 (Homo sapiens, UniProt O96017) — remaining binding: 100%.
The remaining binding was 97% (ALK (Homo sapiens, UniProt Q9UM73, L1196M)).
For CAMK2G (Homo sapiens, UniProt Q13555): remaining binding read 98%.
For eIF-2-alpha kinase GCN2, C-terminal kinase domain (EIF2AK4, Homo sapiens, UniProt Q9P2K8, S808G): remaining binding read 42%.

Block 3
Target: RING finger protein unkempt homolog, zinc fingers 1-6, GST-SBP tag (UNK, Homo sapiens, UniProt Q9C0B0, residues 30-357)
Technique: RNA Bind-n-Seq
Form: RNA
Sample: in vitro
Tested at: not given
Notes: RNA with constant flanks, human and mouse sites, ends assumed
Baseline: input RNA pool
Direction: higher = stronger binding
Target sequence (chain): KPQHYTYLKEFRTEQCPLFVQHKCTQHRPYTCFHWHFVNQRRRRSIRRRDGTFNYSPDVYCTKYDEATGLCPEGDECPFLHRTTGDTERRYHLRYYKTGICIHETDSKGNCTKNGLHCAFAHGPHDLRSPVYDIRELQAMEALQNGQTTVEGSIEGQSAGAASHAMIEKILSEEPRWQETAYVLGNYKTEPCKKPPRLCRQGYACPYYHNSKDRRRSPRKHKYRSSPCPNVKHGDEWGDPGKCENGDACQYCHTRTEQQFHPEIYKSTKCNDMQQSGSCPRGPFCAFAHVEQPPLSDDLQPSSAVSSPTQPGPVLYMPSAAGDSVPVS
The bound/input enrichment of `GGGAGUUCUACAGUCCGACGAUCUUUAAUCUUAAACUCAAUGAGUAUAUGUUGAGUAACCUUUAAAAAUGAAAGAUUUAAAAAGAUUUAUAUCCACUGAGAAUACAGGCCUUAUAUUAAGGAUGAUAUUAAAAUUAUAGGUUUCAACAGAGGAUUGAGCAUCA` is reported as 5.61 ratio.
For `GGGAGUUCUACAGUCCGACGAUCUUUUUGACUUUGUAUUGCUGCCAAACCUGUAACUGUUGAAUUUCAGGAGUGGGGUGGAAAAGGAAACGUGUUUCUUCACUAAGUGAGCAUGUUCCAGGGGUGCAUCCCAGCUGCCCAGGCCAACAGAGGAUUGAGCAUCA`, the bound/input enrichment was 0.231 ratio.
`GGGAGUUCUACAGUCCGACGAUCAUUGCAGCUAAAUAUCAGUUGGAUCCCACUGCUUCCAUUUCUGCAAAAGUCAACAACUCUAGCUUAAUUGGAGUAGGCUAUACUCAGACUCUGAGGCCUGGUGUGAAGCUUACACUCUCUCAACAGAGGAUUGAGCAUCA` has a bound/input enrichment of 0.192 ratio.
The bound/input enrichment of `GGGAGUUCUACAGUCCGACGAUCGGCGGCGCCCGCAGCUCCUCACCGGUACACACGCUGCCACUCAACAACUACACACUGUCACUGCCAGCCUCACUGUCACACAGCCGAACAGGCGCUCACAUCAUUCAGCCAGACACUGCUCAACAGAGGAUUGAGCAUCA` is reported as 0.293 ratio.
`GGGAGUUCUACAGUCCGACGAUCACUUUUGCAGAUGAGCUGGUGGAGCUCAGCACAGCCCUGGAGCACCAGGAGUACAUUACUUUUCUUGAAGACCUCAAGAGUUUUGUCAAGAGCCAGUAGAGCAGACAGAUGCUGAAAGCCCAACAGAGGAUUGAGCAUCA` gave a bound/input enrichment of 0.245 ratio.
`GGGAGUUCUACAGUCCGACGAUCUGAGAACCCAGCCACCACCUCUCUAACCCUGGCUUGCCUUCUUUUUCCUUCCCGUUCUUUCUUUUUGUGGCAGGGUCUCACUAUGUAGCCCUGGCUGGCCUAGAAUUCUCUUUGUAGACGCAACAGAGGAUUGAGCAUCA` gave a bound/input enrichment of 0.626 ratio.
`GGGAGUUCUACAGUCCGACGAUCUUUGACAAGGAUGGGAAUGGUUACAUCAGUGCGGCAGAACUGCGCCACGUCAUGACAAACUUAGGAGAAAAGCUAACAGAUGAAGAAGUAGAUGAAAUGAUCAGAGAAGCAGAUAUUGAUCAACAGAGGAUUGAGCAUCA` has a bound/input enrichment of 2.15 ratio.
The bound/input enrichment of `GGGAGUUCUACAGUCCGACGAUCGGGACUAACGGCGCCGGUGACGACUUCGCCGCGCGUUGGUCAGCCAUGGCCACCGCUCUCGCGCUACGUAGCUUGUACCGAGCGCGACCCUCGCUGCGCUGUCCGCCCGUUGAGCUUCCCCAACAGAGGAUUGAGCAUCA` is reported as 0.059 ratio.

Block 4
Species: mouse
Sample: microsomes or S9
Tested at: 2 µM
Time: 0.5 h
`Cc1noc(C)c1CN1CCn2c1nc(-c1ccccc1)cc2=O` has a remaining compound of 23.7%.
`CNC(=O)c1cc(Br)nn1-c1ncccc1Cl` has a remaining compound of greater than 100%.
The remaining compound of `COc1ccc(-c2n[nH]cc2CN(Cc2ccncc2)C2CC(C)(C)NC(C)(C)C2)cc1` is reported as 86.2%.
The remaining compound of `c1ccc(-c2noc(Cc3cn4ccccc4n3)n2)nc1` is reported as 34.2%.
With `Cc1cc(C2CN(C(=O)Cc3ccon3)CCO2)ccc1F` (stereo not shown) the remaining compound was 2.3%.
`O=C1NCCNC1Cc1ccc(-c2cccc(F)c2F)cc1` (stereo not shown) gave a remaining compound of 46.5%.
`O=c1ccc(Br)cn1Cc1ccccc1Oc1ccccc1` has a remaining compound of 0.302%.
The remaining compound of `Clc1ccc(Nc2ccc(-n3ccnc3)nn2)cc1` is reported as 17.8%.
For `CCc1ncc(CN(C)c2ccc(-n3ccc(C)n3)nn2)s1`, the remaining compound was 0.687%.
For `CCS(=O)(=O)c1nc(S(=O)(=O)c2ccc(Cl)cc2)c(NC2CCCC2)s1`, the remaining compound was 0.0898%.
`COCCCNC(=O)C1CCC(CN(Cc2c(Cl)cccc2Cl)S(=O)(=O)c2ccc(Br)cc2)CC1` (stereo not shown) gave a remaining compound of 0%.
`O=C(c1ccccc1)c1ccccc1C(=O)N1Cc2ccccc2C(C(=O)O)C1` (stereo not shown) gave a remaining compound of 92.4%.
The remaining compound of `c1ccc(COc2ccccc2-c2cscn2)cc1` is reported as 5.96%.
For `COC(=O)C(O)c1cnc2c(c1-c1ccc(Cl)cc1)C(C)(C)CN(Cc1ccc(OC)cc1)C2=O` (stereo not shown), the remaining compound was 71.1%.
For `COc1ccc(OC)c(NC(=O)c2cc3sccc3n2Cc2ccccc2)c1`, the remaining compound was 0.136%.
For `Cc1nnc2c(N3CCN(C(=O)c4n[nH]c5c4CCCC5)CC3)nccn12`, the remaining compound was 0.0275%.
With `COc1ccc(Sc2nn(S(C)(=O)=O)c3ccccc23)cc1OC` the remaining compound was 4.18%.
`CCOc1cc(=O)n2c(c1C(=O)NCc1ccc(F)cc1Cl)CCCC2` has a remaining compound of 24.3%.
With `COc1cc(-c2csc(N)n2)cc(Br)c1O` the remaining compound was 43.5%.
`CN(n1cnc2ccsc2c1=O)S(C)(=O)=O` gave a remaining compound of 95%.
For `Cc1cc(C)nc(N2CCn3c(nnc3C3CCCN3C)C2)n1` (stereo not shown), the remaining compound was 12.9%.
With `CC(C)(C)OC(=O)NC(CC(=O)N1CCCCN1)Cc1ccccc1F` (stereo not shown) the remaining compound was 0.988%.
`COc1c(Br)cc(OCCc2c(O)nc(C)c(Br)c2O)cc1Br` gave a remaining compound of 8.9%.
For `O=C(NC1CCN(Cc2ccc(OC3CCNCC3)c(Br)c2)CC1)c1ccc(-c2ccccc2)o1`, the remaining compound was greater than 100%.

Some of these lines once more (block 4):
`COCCCNC(=O)C1CCC(CN(Cc2c(Cl)cccc2Cl)S(=O)(=O)c2ccc(Br)cc2)CC1` (stereo not shown) gave a remaining compound of 0%.
`O=C(c1ccccc1)c1ccccc1C(=O)N1Cc2ccccc2C(C(=O)O)C1` (stereo not shown) gave a remaining compound of 92.4%.
The remaining compound of `c1ccc(COc2ccccc2-c2cscn2)cc1` is reported as 5.96%.
For `COC(=O)C(O)c1cnc2c(c1-c1ccc(Cl)cc1)C(C)(C)CN(Cc1ccc(OC)cc1)C2=O` (stereo not shown), the remaining compound was 71.1%.
For `COc1ccc(OC)c(NC(=O)c2cc3sccc3n2Cc2ccccc2)c1`, the remaining compound was 0.136%.
